Results collected from several papers.
Numbers after ± are the reported error. * marks the point of attachment.
MIB2: MIB2 1-836 (Homo sapiens, UniProt Q96AX9)
UniProt Q96AX9, sequence (whole entry, looked up): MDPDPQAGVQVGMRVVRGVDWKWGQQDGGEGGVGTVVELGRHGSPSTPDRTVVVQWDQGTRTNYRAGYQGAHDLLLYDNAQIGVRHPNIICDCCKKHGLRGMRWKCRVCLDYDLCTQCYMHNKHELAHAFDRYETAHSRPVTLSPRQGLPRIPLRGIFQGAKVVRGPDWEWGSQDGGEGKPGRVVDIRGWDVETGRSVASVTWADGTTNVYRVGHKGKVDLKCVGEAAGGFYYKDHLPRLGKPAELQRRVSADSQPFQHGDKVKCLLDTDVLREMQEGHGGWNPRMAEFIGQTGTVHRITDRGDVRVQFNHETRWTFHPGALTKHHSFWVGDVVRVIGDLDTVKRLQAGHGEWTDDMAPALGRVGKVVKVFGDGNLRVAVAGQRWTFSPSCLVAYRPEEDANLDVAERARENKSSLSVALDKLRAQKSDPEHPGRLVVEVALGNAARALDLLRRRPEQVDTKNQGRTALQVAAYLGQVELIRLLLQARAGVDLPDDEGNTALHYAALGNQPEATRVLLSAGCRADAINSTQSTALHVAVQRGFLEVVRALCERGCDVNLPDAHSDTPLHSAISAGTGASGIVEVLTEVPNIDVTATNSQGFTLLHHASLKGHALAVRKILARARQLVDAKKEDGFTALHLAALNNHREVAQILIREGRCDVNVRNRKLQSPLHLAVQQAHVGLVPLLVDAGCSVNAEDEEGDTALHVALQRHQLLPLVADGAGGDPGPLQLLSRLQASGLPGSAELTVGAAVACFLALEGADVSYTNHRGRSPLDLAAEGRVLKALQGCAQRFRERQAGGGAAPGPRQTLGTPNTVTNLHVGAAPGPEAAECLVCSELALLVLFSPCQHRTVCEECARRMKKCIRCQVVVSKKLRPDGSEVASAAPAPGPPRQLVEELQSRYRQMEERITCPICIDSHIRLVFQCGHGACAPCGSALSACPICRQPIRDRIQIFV
ORF1 3C-like protease: ORF1, 3C-like protease (Southampton virus, UniProt Q04544)
UniProt Q04544, sequence (whole entry, looked up): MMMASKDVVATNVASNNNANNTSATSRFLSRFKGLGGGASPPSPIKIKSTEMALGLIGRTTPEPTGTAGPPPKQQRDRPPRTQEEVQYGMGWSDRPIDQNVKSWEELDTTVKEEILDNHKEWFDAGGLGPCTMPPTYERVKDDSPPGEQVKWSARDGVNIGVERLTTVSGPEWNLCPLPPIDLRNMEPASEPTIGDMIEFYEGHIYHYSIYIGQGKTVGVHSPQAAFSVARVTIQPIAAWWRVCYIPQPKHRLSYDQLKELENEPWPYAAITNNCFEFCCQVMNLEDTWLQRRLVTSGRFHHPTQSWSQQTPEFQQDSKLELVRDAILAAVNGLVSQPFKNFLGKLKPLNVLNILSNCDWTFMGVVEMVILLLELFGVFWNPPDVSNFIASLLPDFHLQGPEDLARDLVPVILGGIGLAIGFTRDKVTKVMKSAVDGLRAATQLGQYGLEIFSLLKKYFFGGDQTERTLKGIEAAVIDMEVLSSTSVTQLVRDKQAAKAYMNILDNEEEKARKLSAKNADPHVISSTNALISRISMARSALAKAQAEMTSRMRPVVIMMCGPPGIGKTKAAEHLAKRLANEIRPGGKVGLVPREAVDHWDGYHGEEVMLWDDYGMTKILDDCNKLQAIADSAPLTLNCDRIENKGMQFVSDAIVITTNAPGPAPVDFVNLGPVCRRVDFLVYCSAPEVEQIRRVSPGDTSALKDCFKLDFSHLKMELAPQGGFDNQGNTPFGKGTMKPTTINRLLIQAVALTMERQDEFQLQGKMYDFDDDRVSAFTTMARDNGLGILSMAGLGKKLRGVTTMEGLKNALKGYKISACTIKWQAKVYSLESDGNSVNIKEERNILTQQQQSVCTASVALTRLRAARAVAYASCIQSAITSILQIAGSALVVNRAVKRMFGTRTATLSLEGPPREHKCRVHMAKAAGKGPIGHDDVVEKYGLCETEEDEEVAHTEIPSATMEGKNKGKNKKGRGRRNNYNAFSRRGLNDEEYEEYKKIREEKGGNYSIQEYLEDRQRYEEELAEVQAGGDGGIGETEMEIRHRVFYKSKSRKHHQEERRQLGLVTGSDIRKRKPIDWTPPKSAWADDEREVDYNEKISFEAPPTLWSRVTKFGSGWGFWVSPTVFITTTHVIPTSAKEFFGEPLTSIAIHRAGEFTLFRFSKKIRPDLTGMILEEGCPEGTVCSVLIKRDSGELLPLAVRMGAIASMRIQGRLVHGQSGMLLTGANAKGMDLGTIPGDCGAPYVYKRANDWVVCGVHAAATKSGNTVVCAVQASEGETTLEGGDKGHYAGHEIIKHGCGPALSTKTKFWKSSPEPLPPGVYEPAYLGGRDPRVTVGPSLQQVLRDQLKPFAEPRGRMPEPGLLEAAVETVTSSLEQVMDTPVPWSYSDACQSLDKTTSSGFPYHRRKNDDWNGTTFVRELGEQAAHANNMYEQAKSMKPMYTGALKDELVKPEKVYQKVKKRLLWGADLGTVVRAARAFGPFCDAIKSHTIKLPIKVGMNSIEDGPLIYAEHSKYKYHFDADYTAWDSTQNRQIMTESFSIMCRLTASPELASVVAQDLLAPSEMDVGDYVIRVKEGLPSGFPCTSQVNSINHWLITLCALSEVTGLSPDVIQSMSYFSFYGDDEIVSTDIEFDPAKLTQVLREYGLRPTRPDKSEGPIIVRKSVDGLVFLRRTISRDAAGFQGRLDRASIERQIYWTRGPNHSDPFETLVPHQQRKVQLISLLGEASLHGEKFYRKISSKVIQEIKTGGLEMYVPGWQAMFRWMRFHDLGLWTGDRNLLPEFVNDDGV
B1: hsaD (Mycobacterium tuberculosis, UniProt P9WNH5); chain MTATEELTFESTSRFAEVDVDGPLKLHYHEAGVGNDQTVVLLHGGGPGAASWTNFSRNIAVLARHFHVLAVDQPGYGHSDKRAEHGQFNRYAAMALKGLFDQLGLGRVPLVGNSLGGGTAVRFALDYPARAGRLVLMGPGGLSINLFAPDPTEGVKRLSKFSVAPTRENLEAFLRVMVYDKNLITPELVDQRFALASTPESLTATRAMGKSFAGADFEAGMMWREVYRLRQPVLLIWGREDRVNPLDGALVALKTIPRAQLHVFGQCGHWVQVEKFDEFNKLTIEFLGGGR
B2: Cd300lf 20-128 (Mus musculus, UniProt Q6SJQ7-2); chain EDPVTGPEEVSGQEQGSLTVQCRYTSGWKDYKKYWCQGVPQRSCKTLVETDASEQLVKKNRVSIRDNQRDFIFTVTMEDLRMSDAGIYWCGITKGGLDPMFKVTVNIGP
B3: VP35 1-215 (Zaire ebolavirus, UniProt Q05127); chain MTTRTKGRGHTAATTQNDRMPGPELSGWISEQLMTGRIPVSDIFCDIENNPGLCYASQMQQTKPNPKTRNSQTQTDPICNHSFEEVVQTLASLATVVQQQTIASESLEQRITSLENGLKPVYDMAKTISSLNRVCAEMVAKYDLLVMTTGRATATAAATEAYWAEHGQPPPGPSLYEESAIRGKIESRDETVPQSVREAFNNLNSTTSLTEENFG
B4: IgG1 antibody IgG1 (Homo sapiens); V domains shown; VH QVQLVQSGAQLKKPGESLKISCKGSGYNFSRYWIAWVRHMPGKGLEVMGIIYPDDSDTRYSPSVRGQVTISADKSTSIVYLQWSSLKASDTGIYYCARFGAGMTGMPRYFDTTRWFDPWGQGTQVTVSS; VL DQSVLTQPPSVSGAPGQRVTISCLGGSSNIGAGYDVHWYQHLPGAAPKLLISGNSNRPSGVPARFSGSKSGTSASLAITGLQAEDEADYYCQSYDNDLSQVFGGGTKLTVL
B5: HBx 1-120 R26C (Hepatitis B virus, UniProt P03165); chain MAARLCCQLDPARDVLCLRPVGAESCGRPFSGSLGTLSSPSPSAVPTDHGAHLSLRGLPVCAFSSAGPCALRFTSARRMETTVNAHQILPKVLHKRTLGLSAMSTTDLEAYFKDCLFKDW
B6: Alpha-bungarotoxin (Bungarus multicinctus, UniProt P60615); chain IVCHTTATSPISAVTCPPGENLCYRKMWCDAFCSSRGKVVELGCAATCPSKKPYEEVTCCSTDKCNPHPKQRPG
B7: K4 (human herpesvirus 8, UniProt Q98157); chain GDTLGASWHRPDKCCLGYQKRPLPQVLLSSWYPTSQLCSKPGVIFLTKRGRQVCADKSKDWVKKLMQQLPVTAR
UniProt P9WNW7, sequence (whole entry, looked up): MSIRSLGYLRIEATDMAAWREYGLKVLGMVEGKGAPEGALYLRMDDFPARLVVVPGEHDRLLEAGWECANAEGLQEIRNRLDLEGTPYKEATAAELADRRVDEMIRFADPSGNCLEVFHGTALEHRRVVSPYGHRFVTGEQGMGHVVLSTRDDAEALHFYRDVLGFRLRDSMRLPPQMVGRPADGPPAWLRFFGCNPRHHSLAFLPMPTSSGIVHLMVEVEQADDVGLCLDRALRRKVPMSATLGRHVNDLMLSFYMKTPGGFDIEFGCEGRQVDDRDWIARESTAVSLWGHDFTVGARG
UniProt Q80J94, sequence (whole entry, looked up): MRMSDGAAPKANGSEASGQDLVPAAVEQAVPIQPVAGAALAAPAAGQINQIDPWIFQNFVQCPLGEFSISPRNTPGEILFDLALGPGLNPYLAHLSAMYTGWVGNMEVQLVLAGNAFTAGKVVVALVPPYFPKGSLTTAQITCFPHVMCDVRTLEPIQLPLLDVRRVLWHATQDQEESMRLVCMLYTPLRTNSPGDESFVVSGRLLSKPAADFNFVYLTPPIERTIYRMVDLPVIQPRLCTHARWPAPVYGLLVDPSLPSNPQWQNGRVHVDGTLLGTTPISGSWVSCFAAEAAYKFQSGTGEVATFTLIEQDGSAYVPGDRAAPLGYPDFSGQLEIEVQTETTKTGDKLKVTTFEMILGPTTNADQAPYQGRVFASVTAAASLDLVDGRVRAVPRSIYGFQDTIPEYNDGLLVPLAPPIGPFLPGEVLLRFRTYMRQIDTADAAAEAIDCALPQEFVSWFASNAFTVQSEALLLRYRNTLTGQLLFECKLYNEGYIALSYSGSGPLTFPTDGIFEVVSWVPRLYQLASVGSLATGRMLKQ
UniProt P22770, sequence (whole entry, looked up): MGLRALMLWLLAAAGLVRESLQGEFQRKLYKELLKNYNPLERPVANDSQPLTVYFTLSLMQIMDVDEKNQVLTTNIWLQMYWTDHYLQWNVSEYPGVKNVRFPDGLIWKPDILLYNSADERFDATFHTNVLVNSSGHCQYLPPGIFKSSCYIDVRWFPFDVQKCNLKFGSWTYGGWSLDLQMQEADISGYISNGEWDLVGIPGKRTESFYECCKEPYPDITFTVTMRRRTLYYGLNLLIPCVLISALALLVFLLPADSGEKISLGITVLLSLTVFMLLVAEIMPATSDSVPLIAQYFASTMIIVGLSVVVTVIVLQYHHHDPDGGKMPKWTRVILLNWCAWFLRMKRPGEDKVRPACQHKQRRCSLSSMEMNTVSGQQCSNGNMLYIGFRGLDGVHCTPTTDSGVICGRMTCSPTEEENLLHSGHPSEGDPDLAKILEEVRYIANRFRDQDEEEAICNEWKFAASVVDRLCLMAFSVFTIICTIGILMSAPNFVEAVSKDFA
UniProt Q9I6N5, sequence (whole entry, looked up): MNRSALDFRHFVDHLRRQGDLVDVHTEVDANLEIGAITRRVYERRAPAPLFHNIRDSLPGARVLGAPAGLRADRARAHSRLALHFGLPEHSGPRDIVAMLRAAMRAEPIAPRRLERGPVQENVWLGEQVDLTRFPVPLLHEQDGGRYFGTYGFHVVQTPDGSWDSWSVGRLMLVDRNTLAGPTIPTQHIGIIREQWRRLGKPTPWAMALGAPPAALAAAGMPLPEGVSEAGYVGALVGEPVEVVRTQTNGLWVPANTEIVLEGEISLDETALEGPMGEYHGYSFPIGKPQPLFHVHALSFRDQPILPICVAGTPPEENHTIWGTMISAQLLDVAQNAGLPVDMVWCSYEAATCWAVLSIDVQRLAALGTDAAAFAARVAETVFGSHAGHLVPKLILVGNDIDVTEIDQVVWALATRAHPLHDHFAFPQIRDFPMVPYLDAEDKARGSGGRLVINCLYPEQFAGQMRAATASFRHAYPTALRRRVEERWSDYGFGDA
UniProt Q9Y657, sequence (whole entry, looked up): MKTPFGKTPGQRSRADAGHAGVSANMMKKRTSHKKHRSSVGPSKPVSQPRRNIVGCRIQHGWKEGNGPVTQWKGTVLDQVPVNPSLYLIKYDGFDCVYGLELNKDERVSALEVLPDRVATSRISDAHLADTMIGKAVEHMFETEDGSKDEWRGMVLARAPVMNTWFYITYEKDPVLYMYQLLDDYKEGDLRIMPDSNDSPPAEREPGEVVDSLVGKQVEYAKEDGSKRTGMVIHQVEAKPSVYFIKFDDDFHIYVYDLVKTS

Substance | target or system | assay | test system | conditions | how to read | endpoint | value
SARS-CoV spike RBD fragment (SARS-CoV) (sequence not shown) | ACE2 fragment (Homo sapiens) | SPR |  |  |  | Kd | 66.5 nM
B1 (hsaD) | C/C(=C\C=C(/O)C(=O)O)C(=O)CC[C@@H]1C(=O)CC[C@]2(C)C(=O)CC[C@@H]12 | steady-state kinetics |  | pH 7.5, 25 °C |  | kcat/Km | 27000 M⁻¹ s⁻¹
ligA (Mycobacterium tuberculosis, UniProt P9WNV1) | xthA (Mycobacterium tuberculosis, UniProt P96273) | SEC |  |  |  | molecule per partner | 1
B2 (Cd300lf 20-128) | ORF2 VP1 P domain (murine norovirus, UniProt Q80J94) | SPR | Fc fusion |  |  | Kd | 660 nM
B3 (VP35 1-215) | MIB2 | ITC |  |  |  | molecule per partner | 0.8 ± 0.2
hsaC (Mycobacterium tuberculosis, UniProt P9WNW7) | Cc1ccc(O)c(O)c1CC[C@@H]1C(=O)CC[C@]2(C)[C@@H]([C@H](C)C(=O)SCCNC(=O)CCNC(=O)[C@H](O)C(C)(C)COP(=O)(O)OP(=O)(O)OC[C@H]3O[C@@H](n4cnc5c(N)ncnc54)[C@H](O)[C@@H]3OP(=O)(O)O)CC[C@@H]12 | steady-state kinetics |  | pH 7.5, 25 °C |  | kcat/Km | 2.1e+07 M⁻¹ s⁻¹
DKRTQFWRYFAGN (SLC25A5 residues 104-116) | Vpr 52-96 (HIV-1, UniProt P69726) | SPR | peptide |  |  | Kd | 35000 nM
B4 (IgG1 antibody IgG1) | SARS-CoV-2 spike RBD (SARS-CoV-2) | SPR | antibody |  |  | binding | binds
B5 (HBx 1-120 R26C) | SPIN1 50-262 (Homo sapiens, UniProt Q9Y657) | BLI |  |  |  | Kd | 91.15 ± 0.61 nM
BM2 transmembrane peptide (Influenza B virus) |  | solid-state NMR, item: His19 | VM+ membrane pellets | 243 K, average of four tetrad pKa |  | pKa | 5.1
B6 (Alpha-bungarotoxin) | CHRNA7 (Gallus gallus, UniProt P22770) | radioligand binding |  |  | baseline: wild type, higher = more surface toxin binding | relative surface binding | 100%
PA0254 (Pseudomonas aeruginosa, UniProt Q9I6N5) | O=C(O)c1ccc[nH]1 | steady-state kinetics |  | pH 6, apparent |  | kcat | 35.8 ± 0.8 s⁻¹
MSDNGPQNQRNAPRITFGGPSDSTG (N 1-25 (SARS-CoV-2, UniProt P0DTC9)) | G3BP1 (Homo sapiens, UniProt Q13283) | ITC | peptide |  |  | Kd | 7900 nM
B7 (K4) | ORF74 whole (human herpesvirus 8, UniProt Q98146) | competition with anti-ORF74 antibody binding, flow cytometry | HEK293A.ORF74 |  |  | pIC50 | 6.84
LGALS3 fragment (Homo sapiens) (sequence not shown) | S RBD (SARS-CoV-2) | native MS |  |  |  | molecule per partner | 1
nsp16 (SARS-CoV-2, UniProt P0DTD1) | itself | cross-linking |  |  |  | subunits per oligomer | 3
nucleocapsid protein N full length (SARS-CoV) | itself | AUC |  |  |  | subunits per oligomer | 2
cyanovirin-N homolog fragment (sequence not shown) | gp120 (HIV-1) | binding to gp120, ELISA |  |  |  | EC50 | 15.3 nM
CSVTCG (CSVTCG peptide TSP1 properdin-like repeat (Homo sapiens)) | env gp120, 125I (HIV-1, UniProt P03377) | radioligand binding | peptide | apparent |  | Kd | 300 nM
Ac-DEFQLQ-pNA (N-acetyl, C-p-nitroanilide; pNA = O=[N+]([O-])c1ccc(N*)cc1) | ORF1 3C-like protease | substrate, pNA substrate cleavage |  | pH 8.5 |  | kcat/Km | 416 M⁻¹ s⁻¹
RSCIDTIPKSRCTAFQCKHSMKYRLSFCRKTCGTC (ShK mature tethered (UniProt P29187); C-terminal GPI anchor) | KCNA3 (Homo sapiens, UniProt P22001-1) | channel current block, two-electrode voltage clamp |  |  |  | koff | 0.012 s⁻¹
B3 (VP35 1-215) | MIB2 | ITC |  |  |  | Kd | 5400 ± 2500 nM
Ac-EFQLQ-pNA (N-acetyl, C-pNA; pNA = O=[N+]([O-])c1ccc(N*)cc1) | ORF1 3C-like protease | substrate, pNA substrate cleavage |  | pH 8.5 |  | kcat/Km | 463 M⁻¹ s⁻¹
NS3 fragment (hepatitis C virus) (sequence not shown) | NS5B full length (hepatitis C virus) | QCM-D | supported lipid bilayer | 24.0 °C |  | molecule per partner | 1
